# Published values collected from several papers.
# A part holds a random share of what one study measured. Substitutions count along the parent as printed.

# Series 1
# Target: RING finger protein unkempt homolog, zinc fingers 1-6, GST-SBP tag (UNK, Homo sapiens, UniProt Q9C0B0, residues 30-357)
# Technique: RNA Bind-n-Seq
# Molecule type: RNA
# Medium: in vitro
# Tested at: not given
# Notes: RNA with constant flanks, human-mouse chimeric sites, ends assumed
# Relative to: input RNA pool
# Direction: higher = stronger binding
# Constant ends, left off below: GGGAGUUCUACAGUCCGACGAUC … CAACAGAGGAUUGAGCAUCA
# Target sequence (chain): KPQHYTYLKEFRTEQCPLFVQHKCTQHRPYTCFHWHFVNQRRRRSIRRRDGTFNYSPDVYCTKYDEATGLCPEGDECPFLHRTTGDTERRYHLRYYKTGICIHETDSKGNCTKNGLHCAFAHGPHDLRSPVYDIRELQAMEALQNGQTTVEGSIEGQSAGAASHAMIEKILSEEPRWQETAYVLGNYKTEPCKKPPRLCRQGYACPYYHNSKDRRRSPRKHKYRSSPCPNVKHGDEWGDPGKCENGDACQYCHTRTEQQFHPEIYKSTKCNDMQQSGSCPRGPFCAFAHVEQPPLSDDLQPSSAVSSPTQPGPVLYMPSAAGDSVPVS
Strand,bound/input enrichment
GAGUCGAGCAAACUUGAAACAAUUCGUUAUCUUGCAGAGCUUCGGUGCACUUGCUUGGCGAUAGCAUUGGGGUUUUAUAGGUUCUGGAAGGAGAACUGACGAUGAUGCUGCCGCUGCUGC,0.332 ratio
AGAGAUAAAGCAUCUAGGAACAUGCGAGGCUCCCGGAUGAAUGGGUUGCCUAGCCCCACUCACAGCGCCCACUGUAGCUUCUACCGAACCAGAACCUUGCAGGCACUAAGUAAUGAGAAG,0.134 ratio
UGUAGUUUCUUGAUUUAUCAUUUUUCUUGCUCGGGUUUUUCCUUUAGGAAAAGCCUAAAGAUUAGGUUGUAAGAAAAACAGAAGCCAUGUUUCGAAGACCUGUGUUAAUUACAGGUAGUC,0.21 ratio
AUGGAAAAGGAUUCUCUGCCCCGCUUUGUGCGCUCUGAGUUUUAUCAGGAGCUAAUCAAGUAGUCAUCUGGUCAGGCUUCCAAAAGUUGCCCUGUGAGUUGAGUUACAUCCUUUGUAGCA,0.185 ratio
GCUCCUCCCCGCUCUGCAGCCUGGGGACUUUUGGCAACAUUUUUUUUCCAGCUUUCUUUUAAAACUCUCAGUGUAACUGUAUCCCGUGACAUUUCAUUUUUUUUAAAUAGUGUAUUUUUU,7.4 ratio
AUUGUUGAAGCUAACCCACUUUUAGAAGCAUUUGGAAAUGCAAAGACUGUUCGCAACAAUAAUAGCAGUCGAUUUGGGAAAUUUGUAGAAAUUCAUUUCAAUGAAAAGAGUUCGGUUGUU,0.459 ratio
UUUCUACUGCAGCAGACGAUGCUAAGAAUUAAGGAUCCUAAGAAGUCACUGGAUUUUUAUACGAGGGUUCUUGGACUGACCCUCCUGCAGAAGCUUGACUUCCCUGCUAUGAAGUUCUCG,0.149 ratio
AGGAGGAGAUUAAAGGGUGAGAGUGGGGUGGAAGACUGUGUCAUGGCUCUGGAGACACUGUUCAGUGUUCUGCUUUCUCUGUGCAGACUGAUGGCCCCUUACACGCCCUUUCUGACUGAG,0.0657 ratio

# Series 2
# Target: Histone acetyltransferase KAT6A, winged helix 2, GST fusion (KAT6A, Homo sapiens, UniProt Q92794, residues 85-181)
# Technique: protein binding microarray
# Molecule type: double-stranded DNA, one strand shown
# Medium: in vitro
# Tested at: not given
# Notes: 8-mer, flanks averaged, mean of 2 arrays, mostly near background
# Relative to: not given
# Direction: higher = stronger binding
# Residues (chain): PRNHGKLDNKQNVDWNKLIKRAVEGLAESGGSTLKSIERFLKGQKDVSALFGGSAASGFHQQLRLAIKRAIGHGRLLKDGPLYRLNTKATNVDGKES
Strand,E-score
AATCTACT,0.0353
AAGAACCC,-0.0487
CCGGACTC,0.192
GTGCGCAA,0.139
AGTAGGGG,-0.0348
ATGCCTTC,-0.0815
AGCCTCAT,-0.125
AGGCCAAG,-0.0489
AGAAAGGC,0.101
CTCCGATA,-0.128
AAGCTAGC,0.0219
GGTTAAGA,-0.0187
AAGTCTAT,-0.214
AATCCAAC,-0.00814
CCGATGCC,0.102
AAACGAGT,0.0218
GGGCGATA,0.00202
ATTCCCGC,0.132
CCCGGCAA,0.188
CCCACATA,-0.122

# Series 3
# Substance: PhoQ, residues 284 288 289 292 302 303 GNNTDL
# Technique: Sort-seq
# Refers to: YFP reporter
# Medium: E. coli
# Notes: PhoQ-PhoP variant library
# Together with: 10 µM Mg2+
# Relative to: high Mg2+ state
# Direction: higher = stronger signaling
target,fold induction
"PhoP, residues 12 14 15 18 19 NFFVT (Escherichia coli, UniProt P23836)",2.3
"PhoP, residues 12 14 15 18 19 VGHWL (Escherichia coli, UniProt P23836)",0.765
"PhoP, residues 12 14 15 18 19 TPWTL (Escherichia coli, UniProt P23836)",5.09
"PhoP, residues 12 14 15 18 19 LHHYF (Escherichia coli, UniProt P23836)",3.39

# Series 4
# Target: ABI1, truncated, D143A, DHFR fusion (Arabidopsis thaliana)
# Technique: DHFR PCA, deep sequencing
# Medium: yeast
# Notes: methotrexate growth selection, single substitutions
# Together with: (+)-ABA 58 µM
# Relative to: wild-type fitted maximum
# Direction: higher = stronger binding
# Parent: PYL1, truncated, DHFR fusion (Arabidopsis thaliana); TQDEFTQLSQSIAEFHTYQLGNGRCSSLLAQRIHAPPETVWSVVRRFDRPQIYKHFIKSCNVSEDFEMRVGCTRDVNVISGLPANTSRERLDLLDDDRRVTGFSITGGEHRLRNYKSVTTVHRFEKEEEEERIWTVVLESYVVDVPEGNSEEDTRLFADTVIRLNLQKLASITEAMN
Change,relative binding score [%]
G102M,37.1
E67G,74.6
L82T,28.5
F15T,29.7
V40L,-2.5
I105G,-7.87
L28P,14.5
F66W,77.5
W134C,98
F15Y,84.2
G108P,-9.25
L169I,19.5

# Repeated from above (series 2):
Strand,E-score
CTCCGATA,-0.128
CCCGGCAA,0.188
AATCTACT,0.0353
AGAAAGGC,0.101
